Assay results from different studies.
Lines come from different studies, so protocols differ. Several values in a cell are separate wells, animals, samples, runs or records. ± marks the error that the study gave.

| Compound | assay | system | setting | how to read | endpoint | value |
| --- | --- | --- | --- | --- | --- | --- |
| CC(C)(C(=O)NC1C2CC3CC1CC(C(N)=O)(C3)C2)N1CCN(c2ccc(C(F)(F)F)cn2)CC1 (centres unmarked) | refers to: metabolite | human, CSF | oral, 10 mg once daily, 5 days, median | – | dose-normalised AUC(0-24) | 0.46 (ng·h/mL)/mg |
| COc1ncccc1-c1cnn2ccc(N3CCN(C(=O)OC(C)C)CC3)nc12 | – | rat CCI model, plasma | oral, 3 mg/kg, 210 min | – | free concentration | 10 nM |
| CC(=O)c1c(C)c2cnc(Nc3ccc(C4CCN(CCS(C)(=O)=O)CC4)cn3)nc2n(C2CCCC2)c1=O | – | human patients, plasma | oral, 75 mg twice daily, day 1 single dose, added: fulvestrant | – | AUC(0-t) | 866 ng·h/mL |
| O[C@H]1CCCN[C@@H]1CCCn1cnc2c(Cl)c(Cl)ccc21 | – | healthy humans, plasma | oral, 150 mg twice daily | – | median Tmax at steady state | 4 h |
| C[C@]1(O)C[C@@](N)(c2ccc(-c3nc4n(c3-c3ccccc3)COc3ccncc3-4)cc2)C1 | – | human, advanced or metastatic solid tumours | 16 mg once daily, phase I dose escalation | – | patients with TEAE | 100% |
| Cn1cncc1-c1c(F)cncc1NC(=O)c1c(N)nn2cc(F)cnc12 | – | human patients | oral, 180 mg once daily | – | grade ≥3 platelet decrease incidence | 0% |
| CN1CCN(S(=O)(=O)c2cc([N+](=O)[O-])ccc2N(CCOS(C)(=O)=O)CCOS(C)(=O)=O)CC1 | – | naive NSG mice, plasma | intraperitoneal, 25 mg/kg | – | apparent volume Vz/F | 3.8 (mg/kg)/(µM) |
| CNC(=O)c1cc(Oc2ccc(NC(=O)Nc3cc(C(C)(C)C)nn3-c3ccc4ncccc4c3)c(F)c2)ccn1 | retinal vein occlusion, NCI CTC v3.0 | human patients | oral, 100 mg twice daily, tablet, dose at onset | – | related SAE | 6% |
| COc1cc2c(Oc3ccc4[nH]c(C)cc4c3F)ccnc2cc1OCC1(N)CC1 | – | paediatric recurrent refractory sarcoma | 8 mg | – | grade 1 or 2 gingival bleeding | 0% |
| O=S(=O)(Nc1ccccc1)c1ccc(NC(=S)Nc2ccccc2)cc1 | – | mouse, male, lung | oral, 5 mg/kg daily, 14 days | relative to: body weight | relative organ weight | 0.84% |
| CC(=O)NCC(=O)NCC(=O)N[C@H](C(=O)N[C@@H](Cc1ccc(O)cc1)C(=O)N[C@@H](CO)C(=O)N[C@H]1CSSC[C@@H](C(=O)N[C@@H](CCCNC(=N)N)C(=O)N2CCC[C@H]2C(=O)N[C@@H](CCC(N)=O)C(=O)N[C@@H](CCCNC(=N)N)C(=O)NCC(=O)NCCC(=O)N[C@@H](CCCCNC(=O)CN(CC(=O)NCCCC[C@H](NC(=O)CCNC(=O)CNC(=O)[C@H](CCCNC(=N)N)NC(=O)[C@H](CCC(N)=O)NC(=O)[C@@H]2CCCN2C(=O)[C@H](CCCNC(=N)N)NC(=O)[C@@H]2CSSC[C@H](NC(=O)[C@H](CO)NC(=O)[C@H](Cc3ccc(O)cc3)NC(=O)[C@@H](NC(=O)CNC(=O)CNC(C)=O)[C@@H](C)O)C(=O)N[C@@H](Cc3c[nH]cn3)C(=O)N[C@@H](Cc3ccccc3)C(=O)NCC(=O)N[C@@H](C)C(=O)N[C@@H](CC(C)C)C(=O)N[C@@H]([C@@H](C)O)C(=O)N[C@@H](Cc3c[nH]c4ccccc34)C(=O)N[C@@H](C(C)C)C(=O)N2)C(N)=O)C(=O)CCN)C(N)=O)NC(=O)[C@H](C(C)C)NC(=O)[C@H](Cc2c[nH]c3ccccc23)NC(=O)[C@H]([C@@H](C)O)NC(=O)[C@H](CC(C)C)NC(=O)[C@H](C)NC(=O)CNC(=O)[C@H](Cc2ccccc2)NC(=O)[C@H](Cc2c[nH]cn2)NC1=O)[C@@H](C)O | MSD immunoassay | BALB/c mice, healthy female, serum | subcutaneous, 0.08 mg/kg, 72 h, LLOQ 2.0 ng/mL | – | serum concentration | not detected |
| CN1CC[C@@H](c2c(O)cc(O)c3c(=O)cc(-c4ccc(C(F)(F)F)cc4Cl)oc23)[C@@H]1CO | refers to: Leukopenia | relapsed B-cell malignancies or AML | oral, 50 mg, grade 3-4, continuous dosing | – | patients with adverse event | 0% |
| O=C(c1ccc(F)c(F)c1Nc1ccc(I)cc1F)N1CC(O)([C@@H]2CCCCN2)C1 | – | patients aged 6 to sample A years | oral, dose not given | – | SAE leading dose modification | 13% |
| Cc1ccc(F)c2cc(C(=O)N[C@@H]3CCC[C@H](N4CC[C@H](N(C)S(C)(=O)=O)C4)C3)[nH]c12 | – | CD1 mouse, plasma | intravenous, 1 mg/kg, 2 h | – | plasma concentration | 36.2 ng/mL |
| COc1cccc(Oc2ccccc2NC(=O)CNC(=O)c2cccc3ccccc23)c1 | – | esterase-deficient SCID mice, male | oral, 15 mg/kg/day, 14 days, toxicity study | – | total bilirubin | 0.1 mg/dL and 0.2 mg/dL |
| COc1cc(C(=O)NC2CCN(C)CC2)c(F)cc1Nc1ncc(C(F)(F)F)c(Oc2cccc3c2C(=O)N(C)C3)n1 | – | human patients, plasma | oral, 300 mg single dose, geometric mean | – | mean residence time | 26.9 h |
| C[C@@H](NC(=O)N1C(=O)[C@H](Cc2ccnc(N)c2)[C@H]1C(=O)O)C1CCCCC1 | – | healthy adult Chinese volunteers | continuous intravenous infusion, 0.6 mg/kg/h, 5-day infusion, CTCAE 5.0 grading | – | drug-related abnormal liver function | 12.5% |
| C[C@@H]1OC(=O)NN=C1c1ccc(-c2ccc(F)cc2)c(C(F)(F)F)c1 | phase I trial, refers to: muscle spasms worst grade 1 | human patients | 20 mg loading then 1 mg daily | – | patients with adverse event | 0% |

| Compound | assay | system | setting | how to read | endpoint | value |
| --- | --- | --- | --- | --- | --- | --- |
| NCCCC[C@@H]1NC(=O)[C@@H](Cc2c[nH]c3ccccc23)NC(=O)[C@H](c2ccccc2)NC(=O)[C@@H]2C[C@@H](OC(=O)NCCN)CN2C(=O)[C@H](Cc2ccccc2)NC(=O)[C@H](Cc2ccc(OCc3ccccc3)cc2)NC1=O | – | healthy volunteers, male | 1950 µg twice daily, 2.0 h, post hoc | – | placebo-corrected QTcF change | 15.8 ms |
| O=C(Nc1ccc(Cl)cc1)Nc1ccc(Cl)c(Cl)c1 | ultrafiltration | cow milk whey | 200 nM nominal in whole milk | – | dose fraction in permeate | 2.37% |
| CC(C)[C@@H]1NC(=O)CNC(=O)[C@H](CC(N)=O)NC(=O)[C@H](CCCNC(=N)N)NC(=O)[C@H](Cc2ccc(O)cc2)NC(=O)[C@H](C(C)C)NC(=O)[C@@H](NC(=O)[C@@H](NC(=O)[C@H](CC(N)=O)NC(=O)[C@H](Cc2c[nH]c3ccccc23)NC(=O)[C@H](C)NC(=O)[C@H](Cc2ccccc2)NC(=O)CN)C(C)C)CSSC[C@@H](C(=O)N[C@@H](Cc2cnc[nH]2)C(=O)N[C@@H](CCCNC(=N)N)C(=O)N[C@@H](CCCNC(=N)N)C(=O)N[C@@H](C)C(=O)N[C@@H](CC(N)=O)C(N)=O)NC(=O)[C@H](C(C)C)NC(=O)[C@H](CCCNC(=N)N)NC1=O | – | ICR mice, blood | intraductal mammary, 10 mg/kg, day 5 | – | monocytes | 3.09 ± 0.4% |
| CCc1ccc(CC/C=C/c2ccc3c(c2)C(=O)CC3)cc1 | – | Sprague-Dawley rat, male, blood | oral, 120 mg/kg/day, 14 days | – | APTT | 14.4 s |
| CO[C@H]1C[C@@H]2CC[C@@H](C)[C@@](O)(O2)C(=O)C(=O)N2CCCC[C@H]2C(=O)O[C@H]([C@H](C)C[C@@H]2CC[C@@H](OC(=O)NCCOCCOCCOCCOCCOCCOCCOCCOCCC(=O)N3CCc4cc(Cn5nc(-c6ccc7oc(N)nc7c6)c6c(N)ncnc65)ccc4C3)[C@H](OC)C2)C[C@@H](O)[C@H](C)/C=C(\C)[C@@H](O)[C@@H](OC)C(=O)[C@H](C)C[C@H](C)/C=C/C=C/C=C/1C | – | patients with advanced solid tumours | intravenous, dose not given, grade ≥3 | – | Neutropenia AE leading to dose reduction | 1.8% |
| COc1ccnc(C(=O)N[C@H]2COC(=O)[C@H](Cc3ccccc3)[C@@H](OC(=O)C(C)C)[C@H](C)OC2=O)c1OCOC(=O)C(C)C | developmental toxicity | New Zealand white rabbit, female | highest dose tested | – | NOAEL | 495 mg/kg/day |
| Cn1nc(NS(C)(=O)=O)c2c(Cl)ccc(-n3c([C@H](Cc4cc(F)cc(F)c4)NC(=O)Cn4nc(C(F)F)c5c4C(F)(F)[C@@H]4C[C@H]54)nc4nc(OCCC(F)(F)F)ccc4c3=O)c21 | refers to: total bile acids increased | human | 1875 mg, powder in bottle | – | drug-related adverse events | 17% |
| O=[N+]([O-])NC1=NCCN1Cc1ccc(Cl)nc1 | – | whole cow milk | 200 nM nominal | – | dose fraction in skim milk | 96.3% |
| Clc1ccc(-c2ccccc2)cc1 | – | Sprague-Dawley rats, female, serum | inhalation, 23 µg/rat, 4 h after exposure | – | creatinine | 0.4 ± 0.1 mg/dL |
| O=C(Nc1ccccc1)C1CCN(C(=O)Oc2cccnc2)CC1 | – | healthy women | oral, 100 mg, 9 days | – | adverse event Nasopharyngitis | 0% |
| O=C(Nc1ccc2c(c1)B(O)OC2)c1cccc(OCc2ccccc2)c1 | PAMPA | pre-coated trilayer membrane | 200 µM, 5 h, pH 7.4, acceptor plate, PBS | – | acceptor concentration | 0.64 ± 0.25 µM |
| COc1ccc(-c2c(-c3ccc(C#N)c(F)c3)nc(N3CCC(N)CC3)n(C)c2=O)cc1F | refers to: Fatigue | human patients | oral, dose not given, dose escalation, NG | – | serious adverse event incidence | 0% |
| C[C@]1(CO)Cc2ncn(-c3ccc(C#N)c(Cl)c3)c2C(=O)O1 | – | healthy European subjects | dose not given, single dose, all doses | – | subjects with TEAE | 27.1% |
| CC[C@H](C)[C@H](NC(=O)[C@H](C)NC(=O)[C@H](CCCCN)NC(=O)[C@H](CC(C)C)NC(=O)[C@H](C)NC(=O)[C@@H](NC(=O)[C@H](Cc1c[nH]cn1)NC(=O)[C@H](CC(C)C)NC(=O)[C@@H](NC(=O)[C@@H](NC(=O)[C@H](CCCCN)NC(=O)[C@H](C)NC(=O)[C@H](C)NC(=O)[C@H](CO)NC(=O)[C@H](CCCCN)NC(=O)[C@H](Cc1ccccc1)NC(=O)[C@@H](NC(=O)[C@H](CCCCN)NC(=O)[C@H](CC(C)C)NC(=O)[C@H](Cc1ccccc1)NC(=O)[C@H](CO)NC(=O)[C@H](CCCCN)NC(=O)[C@H](Cc1c[nH]c2ccccc12)NC(=O)[C@H](CCCCN)NC(C)=O)[C@@H](C)O)[C@@H](C)O)C(C)C)[C@@H](C)O)C(=O)N[C@@H](CO)C(=O)N[C@@H](CO)C(N)=O | – | minipig | topical on skin, 30 days | – | NOAEL | 200 mg/pig |
| CCN1[C@@H](C(=O)NC23CCC(C(=O)O)(CC2)CC3)[C@H](c2cccc(Cl)c2F)[C@]2(C(=O)Nc3cc(Cl)ccc32)C12CCCCC2 | – | patients with advanced solid tumours | oral, dose not given, all doses | – | Neutropenia incidence | 38.1% |
| CCCCCCCCCCC[C@H](OC1OC[C@H](O)[C@@H](O)[C@@H]1O)[C@H](O)[C@H](O)C[C@@H]1CC(=O)N[C@H](CO)C(=O)N[C@H]([C@H](O)c2ccc(O)cc2)C(=O)N[C@H](CCN)C(=O)NCC(=O)N[C@@H](CC(N)=O)C(=O)N[C@@H](CO)C(=O)N[C@@H]([C@H](O)C(N)=O)C(=O)N1 (some centres unmarked) | LC-MS/MS | rabbit plasma, sodium citrate | 800 ng/mL, room temperature | – | measured concentration, benchtop | 780 ng/mL |
| CC(C)(O)c1cc(Nc2cc(Oc3cn(C4CC4)nc3C3CCOCC3)ccn2)ccn1 | Pyrexia | advanced cancer patients, dose escalation | oral, dose not given, 2 weeks on/off, all causality grade ≥3 | – | treatment-emergent adverse events | 0% |

For quick reference, copied from above:
| Compound | assay | system | setting | how to read | endpoint | value |
| --- | --- | --- | --- | --- | --- | --- |
| CN1CC[C@@H](c2c(O)cc(O)c3c(=O)cc(-c4ccc(C(F)(F)F)cc4Cl)oc23)[C@@H]1CO | refers to: Leukopenia | relapsed B-cell malignancies or AML | oral, 50 mg, grade 3-4, continuous dosing | – | patients with adverse event | 0% |
| CC(=O)NCC(=O)NCC(=O)N[C@H](C(=O)N[C@@H](Cc1ccc(O)cc1)C(=O)N[C@@H](CO)C(=O)N[C@H]1CSSC[C@@H](C(=O)N[C@@H](CCCNC(=N)N)C(=O)N2CCC[C@H]2C(=O)N[C@@H](CCC(N)=O)C(=O)N[C@@H](CCCNC(=N)N)C(=O)NCC(=O)NCCC(=O)N[C@@H](CCCCNC(=O)CN(CC(=O)NCCCC[C@H](NC(=O)CCNC(=O)CNC(=O)[C@H](CCCNC(=N)N)NC(=O)[C@H](CCC(N)=O)NC(=O)[C@@H]2CCCN2C(=O)[C@H](CCCNC(=N)N)NC(=O)[C@@H]2CSSC[C@H](NC(=O)[C@H](CO)NC(=O)[C@H](Cc3ccc(O)cc3)NC(=O)[C@@H](NC(=O)CNC(=O)CNC(C)=O)[C@@H](C)O)C(=O)N[C@@H](Cc3c[nH]cn3)C(=O)N[C@@H](Cc3ccccc3)C(=O)NCC(=O)N[C@@H](C)C(=O)N[C@@H](CC(C)C)C(=O)N[C@@H]([C@@H](C)O)C(=O)N[C@@H](Cc3c[nH]c4ccccc34)C(=O)N[C@@H](C(C)C)C(=O)N2)C(N)=O)C(=O)CCN)C(N)=O)NC(=O)[C@H](C(C)C)NC(=O)[C@H](Cc2c[nH]c3ccccc23)NC(=O)[C@H]([C@@H](C)O)NC(=O)[C@H](CC(C)C)NC(=O)[C@H](C)NC(=O)CNC(=O)[C@H](Cc2ccccc2)NC(=O)[C@H](Cc2c[nH]cn2)NC1=O)[C@@H](C)O | MSD immunoassay | BALB/c mice, healthy female, serum | subcutaneous, 0.08 mg/kg, 72 h, LLOQ 2.0 ng/mL | – | serum concentration | not detected |
| C[C@@H](NC(=O)N1C(=O)[C@H](Cc2ccnc(N)c2)[C@H]1C(=O)O)C1CCCCC1 | – | healthy adult Chinese volunteers | continuous intravenous infusion, 0.6 mg/kg/h, 5-day infusion, CTCAE 5.0 grading | – | drug-related abnormal liver function | 12.5% |
